Assay results collected from several papers.
Parts stem from different laboratories: compare values within a part only.

Block 1
Target: Histone acetyltransferase KAT6A, both winged helices, GST fusion (KAT6A, Homo sapiens, UniProt Q92794, residues 1-181)
Method: protein binding microarray
Molecule type: double-stranded DNA, one strand shown
Medium: in vitro
Tested at: not given
Setting: 8-mer, flanks averaged, mean of 2 arrays, mostly near background
Baseline: not given
Direction: higher = stronger binding
Target sequence (chain): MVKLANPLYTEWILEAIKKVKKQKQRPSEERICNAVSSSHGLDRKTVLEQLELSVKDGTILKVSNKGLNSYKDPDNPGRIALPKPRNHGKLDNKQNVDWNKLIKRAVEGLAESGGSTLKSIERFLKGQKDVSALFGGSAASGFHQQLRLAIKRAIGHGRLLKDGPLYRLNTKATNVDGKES
Sequence | E-score
CGCGTATC | 0.276
CTGAGGCC | 0.0762
CTGGGGAA | -0.185
AAGGTTAC | -0.0869
GCTCGCCA | 0.0587
CCAGGCAG | -0.145
GACCATCC | -0.00709
AGGCGTCC | -0.0581
AAATATAA | -0.102
AGAAGACC | -0.0923
TGGGCGAA | -0.0147
ACGTGCGC | 0.283
AGATTAGC | -0.0213
AAGTGATG | -0.246
AGAAGGTC | -0.0836
ATTACGGA | 0.236
ACCAGCAA | -0.0508
CAGAGTTA | -0.02
CGTTGCTA | -0.0897
ACCGTCGG | 0.36
CCACCAAC | -0.0602
ATGTATCA | -0.122
ACTATTCT | -0.127

Block 2
Target: Prothrombin, mature alpha-thrombin (F2, Homo sapiens, UniProt P00734)
Method: aptamer microarray, sandwich
Molecule type: DNA with 2'F-ANA
Medium: in vitro
Tested at: 200 nM
Setting: whole 15-mer aptamer, many near background
Together with: Cy3 exosite-II aptamer, 400 nM
Direction: higher = stronger binding
Sequence: GGTTGGTGTGGTTGG
Modification | mean fluorescence intensity
2'F-ANA at 3 4 6 7 8 11 14 | 326 a.u.
2'F-ANA at 3 4 11 12 13 | 679 a.u.
2'F-ANA at 2 3 7 10 11 14 15 | 290 a.u.
2'F-ANA at 1 2 7 9 12 14 | 72.6 a.u.
2'F-ANA at 2 3 4 5 7 9 13 14 | 49.2 a.u.
2'F-ANA at 4 6 10 13 | 67.1 a.u.
2'F-ANA at 1 2 3 4 5 7 9 12 13 15 | 70.4 a.u.
2'F-ANA at 1 4 5 7 9 11 12 13 14 | 80.5 a.u.
2'F-ANA at 1 2 4 5 7 11 12 15 | 79.5 a.u.
2'F-ANA at 2 5 6 7 9 10 11 12 13 14 | 48.6 a.u.

Block 3
Target: RNA binding protein fox-1 homolog 2, RRM domain, GST-SBP tag (RBFOX2, Homo sapiens, UniProt O43251-10, residues 100-194)
Method: RNA Bind-n-Seq
Molecule type: RNA
Medium: in vitro
Tested at: 365 nM
Setting: natural RNA segment, single round, ends assumed
Baseline: no-protein control
Direction: higher = stronger binding
Residues (chain): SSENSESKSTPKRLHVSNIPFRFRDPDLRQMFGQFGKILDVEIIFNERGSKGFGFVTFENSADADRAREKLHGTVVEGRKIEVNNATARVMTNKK
Sequence | RBNS enrichment (R)
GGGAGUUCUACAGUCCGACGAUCCCUCUUGGUAAGGAUAUUUGCUUACAAGUGCUAGGAAAUAACUCACUGAUACCUGCGUUAACAUACUUUGUUUUGCCUAGAGAGGGGCAAUAAAAAUGAACCAAAGGAUAUGGAAUUCUCGGGUGCCAA | 0.469
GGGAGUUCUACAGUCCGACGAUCUCUCGAUGGACAAUGAACGGCCUUGCUGGGGGCCGCCCUGUACCCUCUUUCACCUUUCCCUAAAGACCCUAAAUCUGAGGAAUCAACAGGGCAGCAGAUCUGUAUAUUUUUGGAAUUCUCGGGUGCCAA | 0.387
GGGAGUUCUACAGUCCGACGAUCCAGAGAGAUCAGCCCACCCUGCAGACCCACAGAGAAGAUUCAGAGUGUGUGUGAGAGUGAGUGAGUGUGCGUGCGUGCGUGCUUGUAUGUAUGUUUGUAUAUGUAGGACAUGGAAUUCUCGGGUGCCAA | 2.65
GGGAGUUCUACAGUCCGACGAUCAGGGGACCCCUACUAAAGGGUAACUUCAGGUGUGCAGCCCUGAGCUCCAAGGCUCUGCACCAUGCCACACACUUGCUGUAAGGCUAGAAGUGAAGACCUUAUUAAUAGGAUGGAAUUCUCGGGUGCCAA | 0.218
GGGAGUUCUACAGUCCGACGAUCAAGCUAAGUGUCUGUGUGGCUGUGGAGCUCGAGGGUCUGUGAAUAAAGGCGGCGGCACUGGGCGUGGCUCUUGGUGGUCUGUCAGGCCUCUGCCCCUGCGGCACACAUGCUGGAAUUCUCGGGUGCCAA | 0.781
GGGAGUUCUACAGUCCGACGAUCUGGCAUUAAAAUCUAGAUGCAUAGAGAUCCUUGCUAUGAGUUGUGGAUAGGAGUGGCUCCAUCUAUCCUUGUGGUGAAAGAGUCCAGGAGCUCCUUUAGAGAUUGUCAAGUGGAAUUCUCGGGUGCCAA | 0.538
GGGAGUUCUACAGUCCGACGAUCAAAAAUCAUGAUAUUUAAAAAUGGUCAAAUAUUUGAGGCAAAAAAAAAAAAAAAAAGUGUCUCCAGGAGGCUGUCCAGCCUCGUGGCUCCAUUUCAACAUCUCCCCCCAGUGGAAUUCUCGGGUGCCAA | 0.315
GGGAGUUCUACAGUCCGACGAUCAUGGGAGGCCAGCAGGACCCUGCCCCAUGUGUCAGCUACCACAGAUUAAAGCUGUUACCGCACACGGGCCGGCUUCUUUCUCCACAGGGUGGUGGGGUGGGUGGCUAUGGUGGAAUUCUCGGGUGCCAA | 0.722
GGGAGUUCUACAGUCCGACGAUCUGCCCCAGGGGGGCCUCCCUCCUGAGGCUCAAGCUCCUGGCGUCUUUCUUCCUGUUGCUGGAUUCUCACCUCCAUGGGCCUGUCUCUUCUGCCUCUGCCUUCUGGACACCUGGAAUUCUCGGGUGCCAA | 0.277
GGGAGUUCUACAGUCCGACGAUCCAUGUGCAAUUUGUAAAAUGAACCAGAUGUCACUACUUUUGUCUUUAUUUCAAGAAUAUGGCCAUCACUGUUCUCUUAUACAUGUUCUUUUCCAUAUUUUAAUUAUCAAAUGGAAUUCUCGGGUGCCAA | 0.465
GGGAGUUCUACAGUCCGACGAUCAUUGGUUUUUAGGGGCCCCACUUCCCAAUUCAUUAGGUAUGACUGUGGAAAUACAGACAAGGAUCUUAGUUGAUAUUUUGGGCUUGGGGCAGUGAGGGCUUAGGACACCCUGGAAUUCUCGGGUGCCAA | 0.314
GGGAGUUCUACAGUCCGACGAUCACUUUGGAAGCUUAACUUCCCACCUAUCUGGGCCUUACUGGUUUACUUGUGGUUUUCCAUAGUUUUCCAUAAUUACAUUCAUCUUCUUUCUUUGACUAGAAUCACAACCAUGGAAUUCUCGGGUGCCAA | 0.309

Block 4
Target: Fragile X messenger ribonucleoprotein 1, C-terminal low-complexity region (Fmr1, Mus musculus, UniProt P35922)
Method: RNA Bind-n-Seq
Molecule type: RNA
Medium: in vitro
Tested at: 200 nM
Setting: whole 134-nt RNA, ends assumed
Together with: 150 mM KCl
Baseline: input library
Direction: higher = stronger binding
Sequence | log2 enrichment
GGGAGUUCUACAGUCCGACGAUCUAACUUUAGAGGAGGAUCUGAUGGAUAUGGCAGUGGACUUGGAUUUGGGGAUGGCUAUAAUGGGUAUGGAGGAGGACCUGGAGGUGGCAAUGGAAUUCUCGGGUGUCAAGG | 0.331
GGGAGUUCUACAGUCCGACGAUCAGGCCCUGGUGGCAUGCGGGGAGGAAGAGGUGGCCUCAUGGAUCGUGGUGGUCCCGGUGGAAUGUUCAGAGGUGGCCGUGGUGGAGACAGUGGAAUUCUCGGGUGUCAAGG | 0.184
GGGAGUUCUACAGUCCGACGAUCUGCUGAAGCUCACACCCGUGGACCACCCAGACUGCCUGCCGCUACAGGAUGCCCUCCGCAUCUCCCAGGACUUCUUUCCGGCAUCAGUGUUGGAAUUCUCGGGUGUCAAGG | -0.309
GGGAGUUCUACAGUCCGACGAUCACAAUGCAGGUGGGCAUCUUUGGGAAGUGGGGCAAGGGGGGGAUAGGGAGGGGGGUAACACUUUGGGAACAGGUGGUCCCAGGUCGUUUCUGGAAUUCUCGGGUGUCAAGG | 0.782
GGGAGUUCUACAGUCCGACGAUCGUCCUGUGCUACACAUCGUAUGUACCGAAUCGGGUGGGAAAAAAAGGGAAAAAAAGGGAAAGUAUUAUGUUACGCCGUUCGGAUCUGCACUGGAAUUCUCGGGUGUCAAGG | 0.0959
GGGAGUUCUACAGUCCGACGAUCCCUGUGCUACACAUCGUAUGUACCGAAUCGGGGUUUUUUUGGGGUGGGGUUUUUUUGGGGAAAGUAUUAUGUUACGCCGUUCGGAUCUGCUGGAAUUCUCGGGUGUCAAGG | 0.515
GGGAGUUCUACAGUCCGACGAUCAAGUCCUGUGCUACACAUCGUAUGUACCGAAUCGGGUUUGGGUUUUUGGGAAAGGGAAAGUAUUAUGUUACGCCGUUCGGAUCUGCACUUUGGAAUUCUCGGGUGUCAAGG | 0.687
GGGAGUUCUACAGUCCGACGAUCACCAUGCAGGUGGGCAUCUUUGGGAAGUGGGGCAAGGGGGGGAUAGUGAGGGGGGUAACACUUUGGGAACAGGUGGUCCCAGGUCGUUUCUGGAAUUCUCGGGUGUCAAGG | 0.475
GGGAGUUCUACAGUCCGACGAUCACCAUGCAGGUGGGCAUCUUUGGGAAGUGGGGCAAGGGGGGGAUAGGGCGGGGGGUAACACUUUGGGAACAGGUGGUCCCAGGUCGUUUCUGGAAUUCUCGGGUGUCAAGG | 0.781
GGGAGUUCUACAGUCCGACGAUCAGUCCUGUGCUACACAUCGUAUGUACCGAAUCGGGCCCCCGGCCCCCGGCCCCCGGGAAAGUAUUAUGUUACGCCGUUCGGAUCUGCACUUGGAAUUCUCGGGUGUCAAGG | -0.517

Block 5
Target: Protein C-ets-1 (ETS1, Homo sapiens, UniProt P14921, residues 1-441, K379A, full length assumed)
Method: protein-binding microarray
Molecule type: double-stranded DNA, one strand shown
Medium: in vitro
Tested at: not given
Setting: k-mer, scored over probes, only values ≥0.25
Direction: higher = stronger binding
Target sequence (chain): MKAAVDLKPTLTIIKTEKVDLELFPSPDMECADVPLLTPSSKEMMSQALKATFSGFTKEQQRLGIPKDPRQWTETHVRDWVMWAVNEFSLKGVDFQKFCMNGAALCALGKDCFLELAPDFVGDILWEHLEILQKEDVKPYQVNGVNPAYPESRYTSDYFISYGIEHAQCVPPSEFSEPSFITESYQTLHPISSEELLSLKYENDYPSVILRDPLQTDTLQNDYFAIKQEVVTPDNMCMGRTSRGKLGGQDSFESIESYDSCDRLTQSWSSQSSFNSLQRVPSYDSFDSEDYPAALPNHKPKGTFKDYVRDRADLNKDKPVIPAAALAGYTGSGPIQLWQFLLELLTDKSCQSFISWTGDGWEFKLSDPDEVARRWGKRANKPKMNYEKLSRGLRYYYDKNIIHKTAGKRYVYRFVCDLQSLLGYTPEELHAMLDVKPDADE
Sequence | E-score
ACACACCG | 0.295
CAAACACA | 0.28
ATCGTTAG | 0.254
CACCGGTC | 0.361
ACCGCCAA | 0.274
CATATTAA | 0.288
GTCACTCA | 0.268
CGTACGAC | 0.274
CGTTCCCC | 0.322
ACACCGGA | 0.405
AAAGCGAC | 0.277
GTACGGTA | 0.257
CACAACAC | 0.282
CCGGCGCG | 0.376
TACATGTA | 0.259
ACCGACGC | 0.268
CCCCGGCA | 0.34
ATCCATAC | 0.253
